Published values of several laboratories.
Compare with care: the assays were run in different laboratories. Numbers after ± are the reported error.
UniProt P35232, sequence (whole entry, looked up): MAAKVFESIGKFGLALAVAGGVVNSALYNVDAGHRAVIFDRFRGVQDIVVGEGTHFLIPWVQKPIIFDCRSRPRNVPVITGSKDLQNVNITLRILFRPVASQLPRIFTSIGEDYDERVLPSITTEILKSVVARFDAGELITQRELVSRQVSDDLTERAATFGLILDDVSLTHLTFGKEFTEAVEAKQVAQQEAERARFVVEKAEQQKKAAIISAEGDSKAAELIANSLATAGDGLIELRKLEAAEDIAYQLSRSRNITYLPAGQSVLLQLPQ
UniProt P17405, sequence (whole entry, looked up): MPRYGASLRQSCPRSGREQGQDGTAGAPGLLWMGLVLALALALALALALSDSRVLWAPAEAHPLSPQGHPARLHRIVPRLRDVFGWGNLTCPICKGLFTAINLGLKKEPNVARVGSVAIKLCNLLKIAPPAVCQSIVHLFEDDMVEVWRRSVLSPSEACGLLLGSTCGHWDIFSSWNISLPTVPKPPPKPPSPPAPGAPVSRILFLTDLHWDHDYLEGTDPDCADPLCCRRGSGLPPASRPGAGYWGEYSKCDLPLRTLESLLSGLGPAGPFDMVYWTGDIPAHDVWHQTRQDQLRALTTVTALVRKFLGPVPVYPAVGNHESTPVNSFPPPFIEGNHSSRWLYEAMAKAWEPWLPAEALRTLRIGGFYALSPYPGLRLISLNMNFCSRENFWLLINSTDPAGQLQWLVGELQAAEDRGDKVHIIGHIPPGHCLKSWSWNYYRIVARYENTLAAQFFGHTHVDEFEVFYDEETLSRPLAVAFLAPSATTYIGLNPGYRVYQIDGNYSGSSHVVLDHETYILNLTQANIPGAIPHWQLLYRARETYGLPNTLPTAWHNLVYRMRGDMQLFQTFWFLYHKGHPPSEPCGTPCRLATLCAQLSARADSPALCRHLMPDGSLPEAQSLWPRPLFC
UniProt P35916, sequence (whole entry, looked up): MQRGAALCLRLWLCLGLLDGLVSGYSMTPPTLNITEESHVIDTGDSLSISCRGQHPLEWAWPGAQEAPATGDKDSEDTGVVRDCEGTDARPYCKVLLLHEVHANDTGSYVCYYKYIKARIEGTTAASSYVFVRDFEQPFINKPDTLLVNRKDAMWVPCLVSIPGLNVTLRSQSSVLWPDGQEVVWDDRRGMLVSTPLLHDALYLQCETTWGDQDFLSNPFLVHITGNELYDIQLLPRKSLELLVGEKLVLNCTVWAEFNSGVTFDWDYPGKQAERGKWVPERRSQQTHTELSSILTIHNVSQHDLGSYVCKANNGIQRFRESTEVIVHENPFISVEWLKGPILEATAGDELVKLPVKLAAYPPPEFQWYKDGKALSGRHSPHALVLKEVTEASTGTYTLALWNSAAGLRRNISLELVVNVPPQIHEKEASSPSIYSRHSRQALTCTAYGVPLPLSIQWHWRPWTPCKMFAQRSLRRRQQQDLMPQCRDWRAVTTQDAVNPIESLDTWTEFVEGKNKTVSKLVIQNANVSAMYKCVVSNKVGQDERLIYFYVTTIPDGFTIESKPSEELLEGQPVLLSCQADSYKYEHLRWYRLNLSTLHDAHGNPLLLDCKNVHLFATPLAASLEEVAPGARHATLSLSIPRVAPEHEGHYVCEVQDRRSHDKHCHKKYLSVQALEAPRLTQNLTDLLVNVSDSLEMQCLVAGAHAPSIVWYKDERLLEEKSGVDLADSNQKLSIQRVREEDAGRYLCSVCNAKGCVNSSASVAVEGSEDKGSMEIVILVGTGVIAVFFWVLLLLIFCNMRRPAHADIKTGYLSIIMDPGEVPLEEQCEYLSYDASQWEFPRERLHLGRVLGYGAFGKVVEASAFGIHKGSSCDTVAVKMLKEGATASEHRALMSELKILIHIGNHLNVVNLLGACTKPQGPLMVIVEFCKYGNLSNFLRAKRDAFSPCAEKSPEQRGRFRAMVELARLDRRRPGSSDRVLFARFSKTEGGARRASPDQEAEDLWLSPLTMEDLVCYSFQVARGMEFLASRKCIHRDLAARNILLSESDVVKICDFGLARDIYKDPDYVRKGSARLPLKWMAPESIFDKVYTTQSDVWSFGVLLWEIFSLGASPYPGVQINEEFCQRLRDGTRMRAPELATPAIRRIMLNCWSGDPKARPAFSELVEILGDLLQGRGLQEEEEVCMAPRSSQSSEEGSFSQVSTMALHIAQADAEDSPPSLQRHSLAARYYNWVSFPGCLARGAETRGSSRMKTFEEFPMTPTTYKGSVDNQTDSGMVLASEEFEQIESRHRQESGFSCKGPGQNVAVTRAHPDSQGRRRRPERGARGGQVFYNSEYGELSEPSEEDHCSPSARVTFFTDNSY

| Structure (SMILES) | tested on | assay | system | setting | how to read | endpoint | result |
| --- | --- | --- | --- | --- | --- | --- | --- |
| CC[C@H](C)[C@H](NC(=O)[C@H](Cc1ccccc1)NC(=O)[C@H](CCC(=O)O)NC(=O)[C@H](CCCNC(=N)N)NC(=O)[C@H](C)NC(=O)[C@H](C)NC(=O)[C@H](CCC(N)=O)NC(=O)[C@H](CCC(=O)O)NC(=O)[C@H](CCC(=O)O)NC(=O)[C@H](CC(C)C)NC(=O)[C@H](Cc1ccc(O)cc1)NC(=O)[C@H](CO)NC(=O)[C@H](CO)NC(=O)[C@@H](NC(=O)[C@H](CC(=O)O)NC(=O)[C@H](CO)NC(=O)[C@@H](NC(=O)[C@H](Cc1ccccc1)NC(=O)[C@@H](NC(=O)CNC(=O)[C@H](CCC(=O)O)NC(=O)[C@H](C)NC(=O)CCc1c[nH]cn1)[C@@H](C)O)[C@@H](C)O)C(C)C)C(=O)N[C@@H](C)C(=O)N[C@@H](Cc1c[nH]c2ccccc12)C(=O)N[C@@H](CC(C)C)C(=O)N[C@H](C(=O)N[C@@H](CCCNC(=N)N)C(=O)NCC(=O)N[C@@H](CCCNC(=N)N)C(=O)N[C@@H](CCCCNC(=O)COCCOCCNC(=O)COCCOCCNC(=O)CC[C@H](NC(=O)CCCCCCCCCCCCCCCCC(=O)O)C(=O)O)C(=O)NCC(=O)NCC(=O)N[C@@H](CO)C(=O)N[C@@H](CCCCNc1c(NCCCCCN(O)C(=O)CCC(=O)NCCCCCN(O)C(=O)CCC(=O)NCCCCCN(O)C(C)=O)c(=O)c1=O)C(=O)O)C(C)C [zirconium-89 labelled] |  |  | rat, knee | intravenous, 3 nmol/kg, 168 h |  | tissue uptake | 0.26 %ID/g |
| CCC[C@@](N)(CO)CCc1ccc(OCCCCCC(C)C)cc1 |  |  | hound dogs, male | intravenous, 0.25 mg/kg, geometric mean |  | AUC(0-last) | 413 nM·h |
| CNC(=O)c1cc(Oc2ccc(NC(=O)Nc3cc(C(C)(C)C)nn3-c3ccc4ncccc4c3)c(F)c2)ccn1 |  | retinal vein occlusion, NCI CTC v3.0 | human patients | oral, all dose levels |  | related SAE | 2% |
| CN[C@@H](C)C(=O)N[C@H]1CN(S(=O)(=O)c2cccc(S(=O)(=O)N3CC[C@H]4CC[C@@H](C(=O)NC(c5ccccc5)c5ccccc5)N4C(=O)[C@@H](NC(=O)[C@H](C)NC)C3)c2)CC[C@H]2CC[C@@H](C(=O)NC(c3ccccc3)c3ccccc3)N2C1=O |  |  | patients advanced solid tumours | dose not given, all grades all doses |  | treatment-related ALT elevation | 7.1% |
| COc1ccc([C@@H](O)c2cc(-c3ncnc4cc(N5CCOCC5)ccc34)c(F)cc2Cl)nn1 |  |  | patients, advanced solid tumours | oral, 300 mg twice daily, treatment-emergent, together with: avelumab |  | gastrointestinal disorders incidence | 4% |
| CCCc1cc(O)c(C/C=C(\C)CCC=C(C)C)c(O)c1C(=O)O |  | LC-MS/MS | Scn1a+/− mice, plasma | intraperitoneal, 10 mg/kg, after hyperthermia protocol |  | plasma concentration | 106 ± 16 µg/mL |
| C[C@H]1CN(c2n[nH]c3nc(N[C@H]4CC[C@H](NS(=O)(=O)CCC(F)(F)F)CC4)ncc23)CCO1 | Prohibitin 1 (PHB1, Homo sapiens, UniProt P35232) | competitor, Kinobeads competition | human cell extract | 0.032 µM | reference: vehicle | relative abundance | 1.01 |
| O=C(O)C[C@H](NC(=O)[C@H](CC(=O)O)NC(=O)[C@H](CC(=O)O)NC(=O)[C@H](CC(=O)O)NC(=O)[C@H](CC(=O)O)NC(=O)[C@H](CC(=O)O)NC(=O)[C@H](CC(=O)O)NC(=O)[C@H](CC(=O)O)NC(=O)[C@H](CC(=O)O)NC(=O)[C@H](CC(=O)O)NC(=O)[C@H](CC(=O)O)NC(=O)[C@H](CCCCNC(=O)c1ccc(C(=O)NCCOCCOB2BBBBBB3BBBB3B2)cc1)NC(=O)CN1CCN(CC(=O)O)CCN(CC(=O)O)CCN(CC(=O)O)CC1)C(=O)O [gallium-67 labelled] |  | gamma counting | mouse, ddY, male, 6 weeks old, femur | intravenous, 37 kBq, 3 h |  | tissue uptake | 7.13 %ID/g |
| C[C@]1(O)C[C@@](N)(c2ccc(-c3nc4n(c3-c3ccccc3)COc3ccncc3-4)cc2)C1 |  |  | human, advanced or metastatic solid tumours | 24 mg intermittent, phase I dose escalation |  | patients with Stomatitis TEAE | 0% |
| C[C@@H](NC(=O)N1C(=O)[C@H](Cc2ccnc(N)c2)[C@H]1C(=O)O)C1CCCCC1 |  |  | healthy adult Chinese volunteers | continuous intravenous infusion, 0.3 mg/kg/h, 5-day infusion, CTCAE 5.0 grading |  | incidence of grade 3 or higher AEs | 0% |
| COc1ccc(-c2c(-c3ccc(C#N)c(F)c3)nc(N3CCC(N)CC3)n(C)c2=O)cc1F |  | refers to: Vomiting | relapsed/refractory marginal zone lymphoma patients | oral, 60 mg, any grade, dose expansion |  | treatment-related adverse event incidence | 0% |
| N#C[C@@]1(n2ccc(N)nc2=O)O[C@H](CO)[C@@H](O)[C@H]1O |  |  | CD-1 mouse | intravenous, 15 mg/kg |  | clearance | 12.3 mL/min/kg |
| CO[C@H]1C[C@@H]2CC[C@@H](C)[C@@](O)(O2)C(=O)C(=O)N2CCCC[C@H]2C(=O)O[C@H]([C@H](C)C[C@@H]2CC[C@@H](OC(=O)NCCOCCOCCOCCOCCOCCOCCOCCOCCC(=O)N3CCc4cc(Cn5nc(-c6ccc7oc(N)nc7c6)c6c(N)ncnc65)ccc4C3)[C@H](OC)C2)C[C@@H](O)[C@H](C)/C=C(\C)[C@@H](O)[C@@H](OC)C(=O)[C@H](C)C[C@H](C)/C=C/C=C/C=C/1C |  |  | patients with advanced solid tumours | intravenous, 6 mg weekly, any grade |  | dysgeusia incidence | 8.3% |
| Cc1ccc(S(=O)(=O)n2c(N)nc3ccccc32)cc1 |  |  | mouse, plasma | intraperitoneal, 30 mg/kg, 120 min |  | plasma concentration | 540 ± 40 nM |
| O=C(Nc1ccc2c(c1)B(O)OC2)c1ccc(OCc2ccc(Cl)cc2)cc1 |  | PAMPA |  | 200 µM, 5 h, pH 7.4 |  | membrane retention | 11.5% |
| CC[C@H](C)[C@@H]1NC(=O)[C@@H]2CCCN2C(=O)[C@H](CC(C)C)NC(=O)[C@H](CC(C)C)NC(=O)CNC(=O)[C@@H](NC(=O)[C@@H](NC(=O)[C@H](CC(=O)O)NC(=O)CNC(=O)[C@@H](NC(=O)[C@H](C)NC(=O)CNC(=O)[C@H](CCCCN)NC(=O)[C@H](CC(C)C)NC(=O)[C@H](CC(C)C)NC(=O)[C@H](CCCCN)NC(=O)CNC(=O)[C@@H](NC(=O)[C@@H](N)CC(C)C)C(C)C)C(C)C)C(C)C)CSSC[C@@H](C(=O)O)NC1=O |  | RNA-seq, refers to: novel.227 mRNA | mouse traumatic brain injury, frontal cortex and hippocampus | dose not given | reference: TBI plus compound vs TBI | log2 fold change | -2.26 |
| CCN1CCN(Cc2ccc(Nc3ncc(F)c(-c4cc(F)c5nc6n(c5c4)[C@H](C)CCC6)n3)nc2)CC1 |  |  | advanced solid tumour patients | dose not given, Phase Ia monotherapy |  | Neutropenia incidence, any grade | 58.3% |
| Cc1ncc(OC[C@@]2(c3cccc(F)c3)C[C@H]2C(=O)Nc2ccc(F)cn2)c(C)n1 | MDCK |  |  | 1 µM, 90 min, pH 7.4 apical, 7.4 basolateral, basolateral to apical |  | mass recovery | 88 ± 10% |
| CNC(=O)c1c(N(C)N=O)ncn1C | Escherichia coli | mutagenicity, Ames plate incorporation | WP2 uvrA pKM101 | 1500 µg/plate, without S9, methanol |  | revertant colonies per plate | 129 ± 15 |

| Structure (SMILES) | tested on | assay | system | setting | how to read | endpoint | result |
| --- | --- | --- | --- | --- | --- | --- | --- |
| CCN1[C@@H](C(=O)NC23CCC(C(=O)O)(CC2)CC3)[C@H](c2cccc(Cl)c2F)[C@]2(C(=O)Nc3cc(Cl)ccc32)C12CCCCC2 |  |  | patients with advanced solid tumours | oral, 100 mg |  | grade ≥3 vomiting incidence | 0% |
| CN1C(=O)[C@@H](NC(=O)c2nnc(Cc3ccccc3)[nH]2)COc2cccnc21 |  | phase I single ascending dose | human, male and female | oral, 30 mg, fasted |  | participants with TEAE leading to death | 0% |
| C[C@]1(CO)Cc2ncn(-c3ccc(C#N)c(Cl)c3)c2C(=O)O1 |  |  | human, plasma | 80 mg once daily, fasted |  | half-life at steady state | 5.5 h |
| N=c1c2c(-c3ccccc3)c(-c3ccccc3)n(Cc3ccccc3)c2ncn1[C@H]1CC[C@H](O)CC1 |  |  | Gottingen minipig, female, plasma | intravenous, 0.25 mg/kg |  | CL as % of hepatic blood flow | < 5% |
| COc1cc(Nc2ncc(F)c(Nc3ccc4c(n3)NC(=O)C(C)(C)O4)n2)cc(OC)c1OC | Sphingomyelin phosphodiesterase (SMPD1, Homo sapiens, UniProt P17405) | enzyme activity, inhibitor |  |  |  | IC50 | > 10 µM |
| CC(=O)c1c(C)c2cnc(Nc3ccc(C4CCN(CCS(C)(=O)=O)CC4)cn3)nc2n(C2CCCC2)c1=O |  |  | human, dose-escalation trial, plasma | oral, 75 mg twice daily, day 21, multiple doses |  | AUC(0-inf) | 2710 ng·h/mL |
| CCc1ccc(CC/C=C/c2ccc3c(c2)C(=O)CC3)cc1 |  |  | Sprague-Dawley rat, male, blood | oral, 450 mg/kg/day, 14 days |  | MCV | 60.8 fL |
| Oc1c(Cl)cc2c(c1Cl)Oc1cc(Cl)c(Cl)cc1O2 |  | ultrafiltration | cow milk whey | 100 nM nominal in whole milk |  | dose fraction in permeate | 17.1% |
| COc1ccc(N2C(=O)N(c3c(C)cccc3Cl)Cc3cnc(Nc4ccc(C5CCN(C)CC5)cc4OC)nc32)nc1 | Vascular endothelial growth factor receptor 3 (FLT4, Homo sapiens, UniProt P35916) | kinase activity |  | 0.5 µM |  | inhibition | 45% |
| COc1cc2c(Oc3ccc4[nH]c(C)cc4c3F)ccnc2cc1OCC1(N)CC1 |  |  | paediatric recurrent refractory sarcoma | 10 mg |  | grade 1 or 2 Proteinuria | 25% |
| CN1CCN(S(=O)(=O)c2cc([N+](=O)[O-])ccc2N(CCOS(C)(=O)=O)CCOS(C)(=O)=O)CC1 |  |  | NSG mice female, plasma | intraperitoneal, 25 mg/kg, 1.5 h |  | concentration | 180 nM |
| COc1ncccc1-c1cnn2ccc(N3CCN(C(=O)OC(C)C)CC3)nc12 |  |  | rat, CCI mechanical allodynia model, brain | oral, 3 mg/kg, 240 min |  | drug concentration | 1100 nM |
| CC(C)C[C@@H]1NC(=O)[C@H](CC(C)C)NC(=O)[C@H](Cc2c[nH]c3ccccc23)NC(=O)[C@H](CO)NC(=O)[C@H](Cc2c[nH]c3ccccc23)NC(=O)[C@@H]2CCCN2C(=O)[C@H](CC(C)C)NC(=O)[C@H](Cc2c[nH]cn2)NC(=O)[C@@H]2CCCN2C(=O)[C@H](CC(N)=O)NC(=O)[C@H](C)NC(=O)[C@H](Cc2ccc(O)cc2)NC(=O)[C@H](CS)NC(=O)[C@H](CCCCNC(=O)CN2CCN(CC(=O)O)CCN(CC(=O)O)CCN(CC(=O)O)CC2)NC1=O [lutetium-177 labelled] |  |  | Balb/c mouse, female, 4T1 tumour, heart | intravenous, 3.7 MBq, 1 h |  | tissue uptake | 0.1 ± 0.12 %ID |
| CC(C)CC(=O)OC[C@H]1O[C@@](C#N)(c2ccc3c(N)ncnn23)[C@H](O)[C@@H]1O |  | plasma protein binding | rat plasma | 9 µM, time not given |  | recovery | 90.9% |
| C[C@@H](O)[C@@H](CO)NC(=O)[C@@H](CCCNC(=N)N)NC(=O)[C@@H]1CCCN1C(=O)[C@@H]1CSSC[C@H](NC(=O)[C@H](Cc2ccccc2)NC(=O)CN2CCN(CC(=O)O)CCN(CC(=O)O)CCN(CC(=O)O)CC2)C(=O)N[C@@H](Cc2ccc(O)cc2)C(=O)N[C@@H](Cc2ccccc2)C(=O)N[C@@H](CCC(N)=O)C(=O)N[C@@H](CC(N)=O)C(=O)N1 [gallium-68 labelled] |  |  | Wistar rat, heart | intravenous, 8 MBq, 30 min, group mean |  | tissue uptake | 0.24 %ID/g |
| O=C(Nc1ccccc1)C1CCN(C(=O)Oc2cccnc2)CC1 |  |  | healthy women | oral, 100 mg, 9 days |  | adverse event Headache | 23.1% |
| CC(C)C[C@H](NC(=O)C[C@H](O)[C@H](CC(C)C)NC(=O)[C@H](Cc1c[nH]cn1)NC(=O)CNC(=O)[C@@H](NC(=O)[C@H](C)NC(=O)[C@H](Cc1c[nH]c2ccccc12)NC(=O)[C@H](CCC(N)=O)NC(=O)[C@@H](Cc1ccccc1)NC(=O)CCNC(=O)CCSc1nnc(NCCC(=O)NCCC(=O)NCCCC[C@H](NC(=O)N[C@@H](CCC(=O)O)C(=O)O)C(=O)O)c2c1CCC1C(CC2)C1COC(=O)NCCNC(=O)CC[C@H](C(=O)O)N1CCN(CC(=O)O)CCN(CC(=O)O)CC1)C(C)C)C(N)=O (some centres unmarked) [gallium-68 labelled] |  |  | athymic NMRI nude mouse, intestine | intravenous, dose not given, 2 h, together with: bombesin 480 nmol (GRPR blocking) |  | tissue uptake | 0.37 %ID/g |
| N=C(N)NCCC[C@@H]1NC(=O)[C@H](CCCCNC(=O)c2ccc(CNC34CNCCNCC(N)(CNCCNC3)CNCCNC4)cc2)NC(=O)[C@@H](Cc2ccc(O)cc2)NC(=O)[C@H](CC(=O)O)NC(=O)CNC1=O [copper-64 labelled] |  | ex vivo biodistribution | male athymic nude mouse, PC-3 tumour, liver | 7.4 MBq, 48 h |  | tissue uptake | 1.7 ± 0.26 %ID/g |
| CN1CC[C@@H](c2c(O)cc(O)c3c(=O)cc(-c4ccc(C(F)(F)F)cc4Cl)oc23)[C@@H]1CO |  | refers to: Epistaxis | relapsed B-cell malignancies or AML | oral, 100 mg, grade 3-4, continuous dosing |  | patients with adverse event | 0% |
